Published values of several laboratories.
Every numbered part comes from another study and shows a few of its results, in no order.

Set 1 — method: protein-binding microarray; molecule type: double-stranded DNA, one strand shown; sample: in vitro; concentration: 250 nM; setting: 60-bp whole probe; added: salmon DNA 0.4 mg/ml; baseline: random background probes; direction: higher = stronger binding; all sequences stand within: GCCTAGCAC … GTCTTGATTCGCTTGACGCTGCTG
Target: Interferon regulatory factor 5, full length, phosphomimetic (IRF5, Homo sapiens, UniProt Q13568-2, residues 1-514, K96S/S451D/S453D/S456D/S462D)
Strand | log fluorescence [z-score]
TCACCCCTCTCTTTCCAACTGTGCTAG | 0.181
CACGAACTGGGGTATCGAGACGTGCTA | 0.0403
TTAGATATTAGACTGGATTAGTGCTAG | 0.137
TTAGGACTGGGACTGGGTTAGTGCTAG | -0.278
TTTGGTCTCGGTTTCGGTTAGTGCTAG | 9.1
TTAGATCTCAGAGTGGATTAGTGCTAG | -0.056
TTAGGTTTCGTTATCCTTTAGTGCTAG | 7.43
AGGGTCTTCAGGTTCTCCCCGTGCTAG | -0.536
TTAGATTTCGCGTATCGATTAGTGCTA | 3.73
TCAAGTCTAGCCATTGTGACTGTGCTA | -0.0649
CTGAGTCCCTATCTCCTCACGTGCTAG | -0.342
GACGGTCTCGGTTTCGGGAAGTGCTAG | 3.83
TTAGGTATCGACTTTCTGTTAGTGCTA | 6.27
TTAGATTTCAGTTTCGATTGGTGCTAG | 10.2
AACGGACTGGGTATCGGGACGTGCTAG | 0.245
TCAATCGTCCCTTTGAGACTGTGCTAG | -0.246
TTAGGTTTCCTTATCCTTTAGTGCTAG | 1.19
GACGACCTGGGGACTGGAGACGTGCTA | -0.45
TTAGGTTTCGACACTGGGTTGGTGCTA | 6.18

Set 2 — method: universal PBM; molecule type: double-stranded DNA, one strand shown; sample: in vitro; concentration: not given; direction: higher = stronger binding
Target: Sal-like protein 4, full length isoform B (SALL4, Homo sapiens, UniProt Q9UJQ4-2, residues 1-616)
Setting: 8-mer, flanks averaged, mean of replicates
Strand | E-score
CAGCCCGA | -0.376
AGGTTACG | 0.0864
GCGTAACC | 0.0112
GCTAGGGA | -0.177
ATGTCAAT | 0.243
CTAATCGA | -0.0439
CACGCATC | -0.0541
ATGGTCTG | -0.00581
ATCTTCTG | 0.0815
CATCTGTC | -0.11
AGCTGGCA | -0.253
TGACGTAA | 0.179
ACTCAGAG | -0.106
ACTTATGC | 0.186
CGGTGCGC | -0.356
CCCTAAGG | -0.171
CCCCCTTC | -0.29
CATTATGC | 0.21
AGTAGTTG | 0.00107
ACCCCCAA | 0.0478
AATTCCAT | 0.249
ATGACAAC | 0.207
ACATCCGG | -0.0802
ATCGTAAG | 0.0634
ACCGTTCG | -0.0552

Set 3 — method: RNA Bind-n-Seq; molecule type: RNA; sample: in vitro; concentration: 20 nM; setting: 6-mer, flanks averaged, single round; added: 150 mM LiCl; baseline: input library; direction: higher = stronger binding
Target: TAR DNA-binding protein 43, full length, His tag (TARDBP, Homo sapiens, UniProt Q13148, residues 1-414)
Strand | 6-mer enrichment (R)
GAUAAA | 0.88
CGAAAA | 0.776
AACGCU | 0.797
UUACUC | 0.902
GAAUGG | 1.33
AGAAAC | 0.791
UCCUGG | 0.918
GUCUGU | 1.1
UUAUUC | 1.03
AACAGU | 0.86
GCACAU | 0.927
UUCUGG | 0.974
UACACA | 0.856
UUACGG | 0.93
UGAGAC | 0.929
GGCUCG | 0.948

Set 4 — method: RNA Bind-n-Seq; molecule type: RNA; sample: in vitro; concentration: 1 µM; setting: whole 134-nt RNA, ends assumed; added: 150 mM KCl; baseline: input library; direction: higher = stronger binding
Target: Ras GTPase-activating protein-binding protein 1, C-terminal RGG region (G3BP1, Homo sapiens, UniProt Q13283)
Sequence of UniProt Q13283 (whole entry, looked up): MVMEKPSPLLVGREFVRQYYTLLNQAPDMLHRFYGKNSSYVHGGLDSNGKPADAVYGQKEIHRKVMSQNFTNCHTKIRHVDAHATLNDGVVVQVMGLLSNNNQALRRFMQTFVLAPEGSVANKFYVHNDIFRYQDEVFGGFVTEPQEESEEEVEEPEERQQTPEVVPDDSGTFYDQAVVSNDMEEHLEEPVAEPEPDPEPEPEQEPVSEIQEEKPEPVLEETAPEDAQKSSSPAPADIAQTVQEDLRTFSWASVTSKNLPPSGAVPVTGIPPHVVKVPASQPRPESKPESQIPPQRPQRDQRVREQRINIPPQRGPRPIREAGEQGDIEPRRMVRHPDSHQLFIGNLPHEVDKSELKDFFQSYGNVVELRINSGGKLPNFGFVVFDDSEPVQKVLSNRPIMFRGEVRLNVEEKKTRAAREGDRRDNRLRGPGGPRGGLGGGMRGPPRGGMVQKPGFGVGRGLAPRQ
All sequences stand within: GGGAGUUCUACAGUCCGACGAUC … UGGAAUUCUCGGGUGUCAAGG
Strand | log2 enrichment
UGAUCUCCAGGAUGACAUGCGAAGAUGCCAAAUCAUCCGAGACAUGAUUGGACCGGAAAAGACUUUGGUAAAUAUCCUCUCACACCACUA | -1.38
UGUGCUACACAUCGUAUGUACCGAAUCGGGUUUUUUUGGGGUUUUUUUGGGUUUUUUUGGGGAAAGUAUUAUGUUACGCCGUUCGGAUCU | -0.546
ACAGAGGGUUUGGUGGACGUUAUUCUCUAUCAUCAACCCGAUGACAAAAAGAAGAAUCGGGGGUUCUGCUUCCUUGAAUAUGAGGAUCAC | -1.54
GCAGGAAGUAAAAACAAAUGGAAAUGCUUCGGAUAGUGGCAGGGGUGGGGGUUGCUAAGGAAAGGGUGCGAUGGGAGUGGGUAAAGAGUU | 1.82
UAACUUUAGAGGAGGAUCUGAGGGAUAUGGCAGUGGACGUGGAUUUGGGGAUGGCUAUAAUGGGUAUGGAGGAGGACCUGGAGGUGGCAA | 0.559
UGGGAGGUGGAUUUUGUUUAUUUUUUUAGCUCAUUUCCAGGGGUGGGAAUUUUUUUUUAAUAUGUGUCAUGAAAAAAGUUGUUUUUGAAA | 2.54
CUGUGCUACACAUCGUAUGUACCGAAUCGGAAAAAAAGGGAAAAAAAGGGGAAAAAAAGGGGAAAGUAUUAUGUUACGCCGUUCGGAUCU | -1.05
AACAUGCAGGUGGGCAUCUUUGGGAAGUGGGGCAAGGGGGGGAUAGGGAGGGGGGUAACACUUUGGGAACAGGUGGUCCCAGGUCGUUUC | -1.1
UGCGGGCGGCUGAGACGCCGCCUGCCUGGCACCUAGGAGCGCAGCGGAGCCCCGACACCGCCGCCGCCGCCAUGGAGUCCGAGACCGAAC | -0.0686

Set 5 — method: protein binding microarray; molecule type: double-stranded DNA, one strand shown; sample: in vitro; concentration: not given; baseline: not given; direction: higher = stronger binding
Target: Histone acetyltransferase KAT6A, winged helix 2, GST fusion (KAT6A, Homo sapiens, UniProt Q92794, residues 85-181)
Setting: 8-mer, flanks averaged, mean of 2 arrays, mostly near background
Target sequence (chain): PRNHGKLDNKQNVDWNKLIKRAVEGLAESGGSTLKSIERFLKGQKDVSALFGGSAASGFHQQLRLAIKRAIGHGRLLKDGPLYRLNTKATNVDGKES
Strand | E-score
ATTCAATC | -0.0341
TCTTTTCA | -0.172
TCTGCCCA | 0.0125
CAATCTAG | 0.101
CCGGTCAA | 0.132
CGTTTTCA | 0.104
CGGTCAGA | 0.0627
AGTTGAGA | -0.195
CGAATAAA | 0.00224
GCGGAAAC | 0.0232
CTGCTAGA | 0.0409
CCATTGAC | -0.143
CATAAAAG | -0.0749
AGCGCCAA | -0.0725
ACGATAGT | -0.125
AGCGAAAG | 0.0629
GTAGCAAA | 0.0947
ACTTTAGA | -0.129
CTCTGATC | 0.0377
CAACCAGG | 0.137
CCTCTTCA | -0.1
AGTTTCTC | 0.0812
AGGTGGAT | 0.0505
GACGCCCA | -0.021
GGCGGGAC | 0.182

Repeated from above (set 4):
Strand | log2 enrichment
UGAUCUCCAGGAUGACAUGCGAAGAUGCCAAAUCAUCCGAGACAUGAUUGGACCGGAAAAGACUUUGGUAAAUAUCCUCUCACACCACUA | -1.38
UGUGCUACACAUCGUAUGUACCGAAUCGGGUUUUUUUGGGGUUUUUUUGGGUUUUUUUGGGGAAAGUAUUAUGUUACGCCGUUCGGAUCU | -0.546
UAACUUUAGAGGAGGAUCUGAGGGAUAUGGCAGUGGACGUGGAUUUGGGGAUGGCUAUAAUGGGUAUGGAGGAGGACCUGGAGGUGGCAA | 0.559
ACAGAGGGUUUGGUGGACGUUAUUCUCUAUCAUCAACCCGAUGACAAAAAGAAGAAUCGGGGGUUCUGCUUCCUUGAAUAUGAGGAUCAC | -1.54
AACAUGCAGGUGGGCAUCUUUGGGAAGUGGGGCAAGGGGGGGAUAGGGAGGGGGGUAACACUUUGGGAACAGGUGGUCCCAGGUCGUUUC | -1.1
GCAGGAAGUAAAAACAAAUGGAAAUGCUUCGGAUAGUGGCAGGGGUGGGGGUUGCUAAGGAAAGGGUGCGAUGGGAGUGGGUAAAGAGUU | 1.82
CUGUGCUACACAUCGUAUGUACCGAAUCGGAAAAAAAGGGAAAAAAAGGGGAAAAAAAGGGGAAAGUAUUAUGUUACGCCGUUCGGAUCU | -1.05
UGGGAGGUGGAUUUUGUUUAUUUUUUUAGCUCAUUUCCAGGGGUGGGAAUUUUUUUUUAAUAUGUGUCAUGAAAAAAGUUGUUUUUGAAA | 2.54
UGCGGGCGGCUGAGACGCCGCCUGCCUGGCACCUAGGAGCGCAGCGGAGCCCCGACACCGCCGCCGCCGCCAUGGAGUCCGAGACCGAAC | -0.0686
